Assay results from different studies.
Every numbered part comes from another study and shows a few of its results, in no order. Changes are numbered by the printed parent chain.
Chain of UniProt P00519 (whole entry, unmodified, looked up): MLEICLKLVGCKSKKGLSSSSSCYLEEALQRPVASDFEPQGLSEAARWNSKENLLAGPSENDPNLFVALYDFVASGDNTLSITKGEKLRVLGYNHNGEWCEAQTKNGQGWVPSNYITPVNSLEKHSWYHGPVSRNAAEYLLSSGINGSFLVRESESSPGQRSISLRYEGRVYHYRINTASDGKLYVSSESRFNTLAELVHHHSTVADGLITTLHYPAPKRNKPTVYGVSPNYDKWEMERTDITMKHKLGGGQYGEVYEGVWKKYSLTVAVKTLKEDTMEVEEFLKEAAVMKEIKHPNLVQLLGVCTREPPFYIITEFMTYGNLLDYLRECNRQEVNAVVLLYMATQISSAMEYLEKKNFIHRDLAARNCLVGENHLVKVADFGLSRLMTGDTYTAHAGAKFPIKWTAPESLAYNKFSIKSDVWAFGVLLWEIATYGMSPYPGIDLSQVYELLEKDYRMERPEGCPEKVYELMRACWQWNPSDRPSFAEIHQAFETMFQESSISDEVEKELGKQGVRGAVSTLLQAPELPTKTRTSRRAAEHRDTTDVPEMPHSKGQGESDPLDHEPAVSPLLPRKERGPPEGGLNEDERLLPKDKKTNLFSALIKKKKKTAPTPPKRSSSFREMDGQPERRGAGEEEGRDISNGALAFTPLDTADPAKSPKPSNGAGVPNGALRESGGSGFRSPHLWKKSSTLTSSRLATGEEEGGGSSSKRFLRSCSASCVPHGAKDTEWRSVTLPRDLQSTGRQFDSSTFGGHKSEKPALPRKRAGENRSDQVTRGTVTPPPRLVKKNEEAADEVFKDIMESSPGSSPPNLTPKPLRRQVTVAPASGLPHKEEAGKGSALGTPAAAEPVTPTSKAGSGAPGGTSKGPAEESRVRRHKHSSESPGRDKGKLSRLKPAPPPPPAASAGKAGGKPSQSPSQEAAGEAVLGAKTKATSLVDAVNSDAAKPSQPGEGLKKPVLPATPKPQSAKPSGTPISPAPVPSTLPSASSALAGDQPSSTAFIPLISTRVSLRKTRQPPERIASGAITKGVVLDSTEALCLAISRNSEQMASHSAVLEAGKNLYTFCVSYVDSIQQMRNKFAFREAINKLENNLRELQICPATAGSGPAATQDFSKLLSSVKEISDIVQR
Chain of UniProt Q9P289 (whole entry, looked up): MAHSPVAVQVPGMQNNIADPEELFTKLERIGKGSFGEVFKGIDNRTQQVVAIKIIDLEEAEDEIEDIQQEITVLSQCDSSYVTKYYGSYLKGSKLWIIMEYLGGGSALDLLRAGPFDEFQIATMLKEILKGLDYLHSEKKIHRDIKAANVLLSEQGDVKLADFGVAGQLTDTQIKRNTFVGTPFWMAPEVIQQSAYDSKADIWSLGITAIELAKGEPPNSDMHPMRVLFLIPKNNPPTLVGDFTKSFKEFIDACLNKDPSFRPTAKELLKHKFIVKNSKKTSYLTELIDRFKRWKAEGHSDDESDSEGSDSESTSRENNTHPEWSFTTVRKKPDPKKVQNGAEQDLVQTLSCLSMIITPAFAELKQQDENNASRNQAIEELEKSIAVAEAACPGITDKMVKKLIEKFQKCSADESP
Chain of UniProt Q8TDR2 (whole entry, looked up): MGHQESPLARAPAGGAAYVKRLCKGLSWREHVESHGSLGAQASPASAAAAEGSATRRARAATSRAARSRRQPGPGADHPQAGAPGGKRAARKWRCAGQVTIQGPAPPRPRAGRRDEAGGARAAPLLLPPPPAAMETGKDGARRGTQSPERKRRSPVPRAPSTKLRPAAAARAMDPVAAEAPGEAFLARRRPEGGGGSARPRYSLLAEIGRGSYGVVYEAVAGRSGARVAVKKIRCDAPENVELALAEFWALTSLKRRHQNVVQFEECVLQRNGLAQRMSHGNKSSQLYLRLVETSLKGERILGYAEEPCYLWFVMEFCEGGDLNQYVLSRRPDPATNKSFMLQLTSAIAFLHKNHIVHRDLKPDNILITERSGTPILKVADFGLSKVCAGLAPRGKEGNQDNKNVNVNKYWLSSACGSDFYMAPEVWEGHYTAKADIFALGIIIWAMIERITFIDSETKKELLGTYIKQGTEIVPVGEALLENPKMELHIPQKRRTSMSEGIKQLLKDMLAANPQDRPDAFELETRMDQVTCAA
Chain of UniProt P42684 (whole entry, looked up): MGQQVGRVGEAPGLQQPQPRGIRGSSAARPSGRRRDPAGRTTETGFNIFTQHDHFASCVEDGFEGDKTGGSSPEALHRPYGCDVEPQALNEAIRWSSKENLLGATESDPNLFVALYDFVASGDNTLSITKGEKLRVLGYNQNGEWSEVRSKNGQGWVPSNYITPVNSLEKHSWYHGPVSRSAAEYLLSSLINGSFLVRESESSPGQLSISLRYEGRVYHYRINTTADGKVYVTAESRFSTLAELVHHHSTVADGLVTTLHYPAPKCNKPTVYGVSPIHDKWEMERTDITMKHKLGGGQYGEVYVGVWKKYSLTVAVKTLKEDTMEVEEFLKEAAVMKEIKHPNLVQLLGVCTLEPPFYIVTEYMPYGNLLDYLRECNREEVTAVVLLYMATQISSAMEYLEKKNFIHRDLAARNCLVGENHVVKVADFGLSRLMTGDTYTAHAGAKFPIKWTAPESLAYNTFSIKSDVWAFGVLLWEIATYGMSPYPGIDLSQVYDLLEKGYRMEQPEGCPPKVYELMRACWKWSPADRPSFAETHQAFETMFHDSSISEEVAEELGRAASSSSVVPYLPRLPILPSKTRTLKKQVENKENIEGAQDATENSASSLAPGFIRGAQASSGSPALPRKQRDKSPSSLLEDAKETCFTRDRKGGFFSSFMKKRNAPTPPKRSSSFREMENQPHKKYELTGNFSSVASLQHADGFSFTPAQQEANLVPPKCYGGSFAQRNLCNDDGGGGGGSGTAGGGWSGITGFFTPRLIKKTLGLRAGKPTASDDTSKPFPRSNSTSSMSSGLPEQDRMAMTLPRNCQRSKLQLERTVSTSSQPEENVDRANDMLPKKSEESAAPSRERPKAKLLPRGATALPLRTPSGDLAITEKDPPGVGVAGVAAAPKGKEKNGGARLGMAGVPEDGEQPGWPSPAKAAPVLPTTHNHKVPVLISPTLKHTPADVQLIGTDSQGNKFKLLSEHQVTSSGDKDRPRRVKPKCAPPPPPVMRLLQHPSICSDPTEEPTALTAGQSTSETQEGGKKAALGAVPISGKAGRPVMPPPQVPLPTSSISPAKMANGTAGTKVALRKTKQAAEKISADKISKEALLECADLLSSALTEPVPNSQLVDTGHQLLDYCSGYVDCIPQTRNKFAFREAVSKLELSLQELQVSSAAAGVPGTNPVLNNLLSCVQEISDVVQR
Chain of UniProt Q9Y2U5 (whole entry, looked up): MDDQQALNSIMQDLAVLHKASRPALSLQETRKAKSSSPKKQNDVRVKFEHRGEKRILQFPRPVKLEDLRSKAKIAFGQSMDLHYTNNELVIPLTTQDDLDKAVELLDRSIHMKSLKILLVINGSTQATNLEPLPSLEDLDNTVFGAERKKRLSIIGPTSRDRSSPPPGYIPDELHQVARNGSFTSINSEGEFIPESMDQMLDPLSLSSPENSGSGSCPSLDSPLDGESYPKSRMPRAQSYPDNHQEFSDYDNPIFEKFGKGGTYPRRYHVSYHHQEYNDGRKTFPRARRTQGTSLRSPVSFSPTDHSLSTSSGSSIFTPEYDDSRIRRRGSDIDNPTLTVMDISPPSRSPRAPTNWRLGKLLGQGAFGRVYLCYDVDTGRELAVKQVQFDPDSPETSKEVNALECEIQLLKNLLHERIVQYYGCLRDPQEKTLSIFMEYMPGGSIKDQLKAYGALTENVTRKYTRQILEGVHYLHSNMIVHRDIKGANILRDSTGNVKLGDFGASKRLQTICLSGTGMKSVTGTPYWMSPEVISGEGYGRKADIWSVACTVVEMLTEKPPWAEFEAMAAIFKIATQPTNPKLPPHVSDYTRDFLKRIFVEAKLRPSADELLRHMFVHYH
Chain of UniProt Q14012 (whole entry, looked up): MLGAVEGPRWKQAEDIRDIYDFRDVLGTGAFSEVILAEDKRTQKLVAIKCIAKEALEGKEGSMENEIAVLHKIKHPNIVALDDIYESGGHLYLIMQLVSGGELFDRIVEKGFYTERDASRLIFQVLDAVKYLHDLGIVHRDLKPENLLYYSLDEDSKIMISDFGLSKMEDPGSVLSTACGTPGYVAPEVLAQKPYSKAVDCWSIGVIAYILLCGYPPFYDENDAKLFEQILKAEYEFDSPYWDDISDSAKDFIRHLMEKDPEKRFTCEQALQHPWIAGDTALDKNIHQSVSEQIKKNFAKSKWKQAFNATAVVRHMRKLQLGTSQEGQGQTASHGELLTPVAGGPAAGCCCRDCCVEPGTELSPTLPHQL
Chain of UniProt Q13164 (whole entry, looked up): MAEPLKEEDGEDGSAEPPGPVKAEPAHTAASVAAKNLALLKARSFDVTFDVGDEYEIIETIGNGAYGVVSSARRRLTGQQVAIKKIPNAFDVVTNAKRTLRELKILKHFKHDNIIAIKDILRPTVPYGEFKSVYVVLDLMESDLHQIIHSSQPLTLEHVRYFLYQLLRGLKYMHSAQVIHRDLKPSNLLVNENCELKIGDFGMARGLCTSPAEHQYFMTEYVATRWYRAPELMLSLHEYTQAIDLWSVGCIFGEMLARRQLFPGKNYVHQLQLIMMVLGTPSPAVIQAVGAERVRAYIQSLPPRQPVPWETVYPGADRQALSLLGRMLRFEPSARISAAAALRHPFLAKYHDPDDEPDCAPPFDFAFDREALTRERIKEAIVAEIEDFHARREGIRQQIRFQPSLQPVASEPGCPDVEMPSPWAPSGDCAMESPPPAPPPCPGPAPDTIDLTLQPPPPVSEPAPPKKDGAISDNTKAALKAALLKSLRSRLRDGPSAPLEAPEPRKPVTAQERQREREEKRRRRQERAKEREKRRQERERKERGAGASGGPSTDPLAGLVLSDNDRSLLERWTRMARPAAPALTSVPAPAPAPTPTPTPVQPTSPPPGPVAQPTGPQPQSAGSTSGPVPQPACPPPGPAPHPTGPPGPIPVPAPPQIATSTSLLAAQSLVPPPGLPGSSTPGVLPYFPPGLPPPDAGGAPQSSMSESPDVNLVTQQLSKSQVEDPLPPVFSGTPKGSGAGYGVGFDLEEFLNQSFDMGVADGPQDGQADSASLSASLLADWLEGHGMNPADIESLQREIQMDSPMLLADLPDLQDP

Sample 1 — target: CEP164, C-terminal peptide (human); technique: DHFR complementation, deep sequencing; sample: yeast; baseline: wild type; reading: higher = weaker binding
Notes: single substitutions, model-inferred values
Parent: PDZK1, PDZ domain 2 (human); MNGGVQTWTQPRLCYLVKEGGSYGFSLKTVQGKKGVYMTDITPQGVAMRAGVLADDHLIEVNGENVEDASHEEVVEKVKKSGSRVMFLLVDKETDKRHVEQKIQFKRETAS; partner HNRVKVYRF
For `N65V`, “binding free energy change” read 0.322 kcal/mol.
`P43V` — result for “binding free energy change”: 0.49 kcal/mol.
`K92P`: “binding free energy change” -0.0766 kcal/mol.
`F87V` — result for “binding free energy change”: 0.643 kcal/mol.
`I103C` — result for “binding free energy change”: -0.0889 kcal/mol.
For `W8I`, “binding free energy change” read -0.137 kcal/mol.
Under “binding free energy change”, `K79R` is recorded as 0.0816 kcal/mol.
`D91K`: “binding free energy change” 0.0599 kcal/mol.

Sample 2 — SMILES: COc1cc2ncnc(Nc3ccc(O)c(Br)c3)c2cc1OC; effect on: enzyme activity; action: inhibitor; concentration: 0.5 µM; baseline: control
The remaining activity was 92.4% (MARK4 (Homo sapiens, UniProt Q96L34)).
For TXK (Homo sapiens, UniProt P42681): remaining activity read 83.3%.
It gave 101% for remaining activity (CLK4 (Homo sapiens, UniProt Q9HAZ1)).
The remaining activity was 88.4% (NEK3 (Homo sapiens, UniProt P51956)).
For MARK2 (Homo sapiens, UniProt Q7KZI7): remaining activity read 94.5%.
MET (Homo sapiens, UniProt P08581) — remaining activity: 96.4%.
PAK3 (Homo sapiens, UniProt O75914) — remaining activity: 94.2%.
For KDR (Homo sapiens, UniProt P35968): remaining activity read 69.6%.
GRK4 (Homo sapiens, UniProt P32298) — remaining activity: 105%.
It gave 96.1% for remaining activity (ROCK1 (Homo sapiens, UniProt Q13464)).
The remaining activity was 98.7% (AKT2 (Homo sapiens, UniProt P31751)).

Sample 3 — organism: Plasmodium berghei; action: inhibitor; cells: Huh-7; strain: liver stage; concentration: 10 µM; time: 24 h; baseline: untreated control
The infection rate of Oc1ccc(O)cc1 is reported as 57.7%.
CC(C(=O)O)c1ccc(N2Cc3ccccc3C2=O)cc1 (stereo not drawn) has an infection rate of 111%.
Clc1ccc(C(c2ccccc2Cl)C(Cl)Cl)cc1 (stereo not drawn) gave an infection rate of 27.7%.
For CCc1cc(C(N)=S)ccn1, the infection rate was 101%.

Sample 4 — technique: competition with immobilised ligand; concentration: 1 µM
Compound: O=C(N1CCS(=O)(=O)CC1)N1C[C@H](c2ccc(OC(F)(F)F)cc2)C[C@H](c2nc(C3CC3)no2)C1
It gave 100% for remaining binding (BMPR2 (Homo sapiens, UniProt Q13873); cell-free assay).
RIPK2 (Homo sapiens, UniProt O43353); cell-free assay — remaining binding: 90%.
COQ8B (Homo sapiens, UniProt Q96D53); cell-free assay — remaining binding: 73%.
CAMK1 (Homo sapiens, UniProt Q14012); cell-free assay — remaining binding: 100%.
For MARK3 (Homo sapiens, UniProt P27448); cell-free assay: remaining binding read 98%.
It gave 80% for remaining binding (Tyrosine-protein kinase ABL1, non-phosphorylated (ABL1, Homo sapiens, UniProt P00519, F317I); binding).
It gave 97% for remaining binding (NUAK1 (Homo sapiens, UniProt O60285); cell-free assay).
ACVRL1 (Homo sapiens, UniProt P37023); binding — remaining binding: 100%.
MAPK7 (Homo sapiens, UniProt Q13164); cell-free assay — remaining binding: 100%.
PLK1 (Homo sapiens, UniProt P53350); cell-free assay — remaining binding: 91%.
It gave 100% for remaining binding (MAP3K2 (Homo sapiens, UniProt Q9Y2U5); cell-free assay).
HIPK3 (Homo sapiens, UniProt Q9H422); cell-free assay — remaining binding: 100%.
STK35 (Homo sapiens, UniProt Q8TDR2); cell-free assay — remaining binding: 100%.
The remaining binding was 100% (PRKAA1 (Homo sapiens, UniProt Q13131); cell-free assay).
The remaining binding was 100% (MAP4K1 (Homo sapiens, UniProt Q92918); cell-free assay).
For PRKCI (Homo sapiens, UniProt P41743); cell-free assay: remaining binding read 100%.
The remaining binding was 100% (ABL2 (Homo sapiens, UniProt P42684); cell-free assay).
The remaining binding was 81% (NEK10 (Homo sapiens, UniProt Q6ZWH5); cell-free assay).
WEE1 (Homo sapiens, UniProt P30291); cell-free assay — remaining binding: 100%.
It gave 100% for remaining binding (COQ8A (Homo sapiens, UniProt Q8NI60); cell-free assay).
The remaining binding was 100% (GAK (Homo sapiens, UniProt O14976); cell-free assay).
For Tyrosine-protein kinase ABL1, phosphorylated (ABL1, Homo sapiens, UniProt P00519, F317L); cell-free assay: remaining binding read 92%.
It gave 100% for remaining binding (STK3 (Homo sapiens, UniProt Q13188); cell-free assay).
It gave 94% for remaining binding (STK26 (Homo sapiens, UniProt Q9P289); cell-free assay).

Sample 5 — cell line: HaCaT; concentration: 100 µM; time: 18 h
CCCCCCCCOc1ccccc1C(=O)Nc1ccc(C(=O)OCC[N+](C)(CC)CC)cc1 has a viability of 17.6%.
With C#C[C@]1(O)CC[C@H]2[C@@H]3CCC4=CC(=O)CC[C@@H]4[C@H]3C(=C)C[C@@]21CC the viability was 91.1%.
With Nc1ncnc2c1ncn2[C@@H]1O[C@H](CO)[C@@H](O)[C@@H]1O the viability was 93.6%.
With CC[C@]1(O)C[C@@H]2CN(CCc3c([nH]c4ccccc34)[C@@](C(=O)OC)(c3cc4c(cc3OC)N(C)[C@H]3[C@@](O)(C(=O)OC)[C@H](OC(C)=O)[C@]5(CC)C=CCN6CC[C@]43[C@@H]65)C2)C1 the viability was 58.8%.
CN[C@@H]1[C@H](O[C@H]2[C@H](O[C@H]3[C@H](O)[C@@H](O)[C@H](NC(=N)N)[C@@H](O)[C@@H]3NC(=N)N)O[C@@H](C)[C@]2(O)CO)O[C@@H](CO)[C@H](O)[C@H]1O has a viability of 111%.

Mixed results
For COc1ccc(-c2c(Nc3ccccn3)[nH]c3c(C4=CCCCC4)c(-c4ccccc4)nn3c2=O)cc1, the AUC(0-inf) was 52300 ng·h/mL (LC-MS/MS non-compartmental; human, plasma; oral, 200 mg, day -3 of cycle 0, single dose, geometric mean).
CC(C)n1cnc(-c2ccc(F)cc2)c1-c1ncc(C(=O)Nc2ccc(N3CCN(C)CC3)cc2)[nH]1 has an Arrhythmia incidence of 0% (IPF patients; dose not given, all drug arms pooled).

Some of these lines once more (sample 4):
The remaining binding was 100% (ABL2 (Homo sapiens, UniProt P42684); cell-free assay).
The remaining binding was 81% (NEK10 (Homo sapiens, UniProt Q6ZWH5); cell-free assay).
WEE1 (Homo sapiens, UniProt P30291); cell-free assay — remaining binding: 100%.
It gave 100% for remaining binding (COQ8A (Homo sapiens, UniProt Q8NI60); cell-free assay).
The remaining binding was 100% (GAK (Homo sapiens, UniProt O14976); cell-free assay).
